Published values pooled from the literature.
Lines come from different studies, so protocols differ. Numbers after ± are the reported error.

The mortality of `C=C(CN(C(=O)c1c(C(F)F)nn(C)c1F)C1CC1)c1ccc(Cl)cc1Cl` is reported as 0% (static acute toxicity test; zebrafish (Brachydanio rerio); 0.833 mg a.i./L, 6 h).
Under “dose fraction in skim milk”, `Clc1ccc(-c2cc(Cl)c(Cl)cc2Cl)cc1Cl` is recorded as 4.17% (whole cow milk; 2000 nM nominal).
Under “patients with dyspnoea”, `O=C1Nc2cc3[nH]nc(-c4ccncc4)c3cc2CN1Cc1ccccc1` is recorded as 0% (CTCAE v4.03; advanced solid tumour patients; intravenous, 1.8 mg/kg, schedules 1/2).
`CO[C@H]1C[C@@H]2CC[C@@H](C)[C@@](O)(O2)C(=O)C(=O)N2CCCC[C@H]2C(=O)O[C@H]([C@H](C)C[C@@H]2CC[C@@H](OC(=O)NCCOCCOCCOCCOCCOCCOCCOCCOCCC(=O)N3CCc4cc(Cn5nc(-c6ccc7oc(N)nc7c6)c6c(N)ncnc65)ccc4C3)[C@H](OC)C2)C[C@@H](O)[C@H](C)/C=C(\C)[C@@H](O)[C@@H](OC)C(=O)[C@H](C)C[C@H](C)/C=C/C=C/C=C/1C` — result for “dose-reducing adverse events”: 0% (phase 1 dose escalation, refers to: neutropenia; advanced solid tumour patients; intravenous, 6 mg weekly, any grade).
`c1cc2ccc3cccc4ccc(c1)c2c34` has a Vmax of 88.5 pmol/min/mg (metabolism; pooled human liver microsomes; pH 7.4).
For `O=C(Nc1ccc2c(c1)B(O)OC2)c1ccc(Oc2ccccc2)cc1`, the acceptor concentration was 3.5 ± 0.6 µM (PAMPA; pre-coated trilayer membrane; 200 µM, 5 h, pH 7.4, acceptor plate, PBS).
The drug concentration of `COc1ncccc1-c1cnn2ccc(N3CCN(C(=O)OC(C)C)CC3)nc12` is reported as 14 µM (mouse, SNL model, brain; oral, 10 mg/kg, 30 min).
`CC(C)[C@@H]1NC(=O)CNC(=O)[C@H](CC(N)=O)NC(=O)[C@H](CCCNC(=N)N)NC(=O)[C@H](Cc2ccc(O)cc2)NC(=O)[C@H](C(C)C)NC(=O)[C@@H](NC(=O)[C@@H](NC(=O)[C@H](CC(N)=O)NC(=O)[C@H](Cc2c[nH]c3ccccc23)NC(=O)[C@H](C)NC(=O)[C@H](Cc2ccccc2)NC(=O)CN)C(C)C)CSSC[C@@H](C(=O)N[C@@H](Cc2cnc[nH]2)C(=O)N[C@@H](CCCNC(=N)N)C(=O)N[C@@H](CCCNC(=N)N)C(=O)N[C@@H](C)C(=O)N[C@@H](CC(N)=O)C(N)=O)NC(=O)[C@H](C(C)C)NC(=O)[C@H](CCCNC(=N)N)NC1=O` has an albumin of 33.1 ± 1.22 g/L (ICR mouse, blood; intramammary, 10 mg/kg, day 5, 3 d dosing).
For `O=S(=O)(Nc1ccccc1)c1ccc(NC(=S)Nc2ccccc2)cc1`, the albumin level was 3.25 g/dL (female mouse, blood; oral, 80 mg/kg daily, 14 days).
`C[C@@H]1NC(=O)[C@H](CCCCNC(=O)CO/N=C/C(=O)NCCCC[C@@H]2NC(=O)[C@@H](Cc3ccccc3)NC(=O)[C@H](CC(=O)O)NC(=O)CNC(=O)[C@H](CCCNC(=N)N)NC2=O)NC(=O)CNC(=O)[C@@H]2CCCN2C(=O)[C@H](CCCCNC(=O)CO/N=C/C(=O)NCCCC[C@@H]2NC(=O)[C@@H](Cc3ccccc3)NC(=O)[C@H](CC(=O)O)NC(=O)CNC(=O)[C@H](CCCNC(=N)N)NC2=O)NC(=O)[C@H](CCCCNC(=O)CN2CCCNCCNCCCNCC2)NC(=O)[C@H](CCCCNC(=O)CO/N=C/C(=O)NCCCC[C@@H]2NC(=O)[C@@H](Cc3ccccc3)NC(=O)[C@H](CC(=O)O)NC(=O)CNC(=O)[C@H](CCCNC(=N)N)NC2=O)NC(=O)CNC(=O)[C@@H]2CCCN2C(=O)[C@H](CCCCNC(=O)CO/N=C/C(=O)NCCCC[C@@H]2NC(=O)[C@@H](Cc3ccccc3)NC(=O)[C@H](CC(=O)O)NC(=O)CNC(=O)[C@H](CCCNC(=N)N)NC2=O)NC1=O` [copper-64 labelled] has a tissue uptake of 2.53 ± 0.54 %ID/g (normal mice, intestine; intravenous, 0.74 MBq, 3 h post-injection).
The relative abundance of `C[C@H]1CN(c2n[nH]c3nc(N[C@H]4CC[C@H](NS(=O)(=O)CCC(F)(F)F)CC4)ncc23)CCO1` is reported as 1.08 (cAMP-dependent protein kinase catalytic subunit alpha (PRKACA, Homo sapiens, UniProt P17612); inhibitor, Kinobeads competition profiling; 20 µM; reference: vehicle).
`Cc1cc(Nc2ncc(Cl)c(Nc3ccccc3S(=O)(=O)C(C)C)n2)c(OC(C)C)cc1C1CCNCC1` has an MTD of 450 mg (advanced solid tumour patients; oral, daily, together with: gemcitabine + cisplatin).
Under “grade 3 Hyperthyroidism”, `COc1cc2c(Oc3ccc4[nH]c(C)cc4c3F)ccnc2cc1OCC1(N)CC1` is recorded as 0% (paediatric recurrent refractory sarcoma; 10 mg).
`Cn1nc(NS(C)(=O)=O)c2c(Cl)ccc(-n3c([C@H](Cc4cc(F)cc(F)c4)NC(=O)Cn4nc(C(F)F)c5c4C(F)(F)[C@@H]4C[C@H]54)nc4nc(OCCC(F)(F)F)ccc4c3=O)c21` — result for “drug-related adverse events”: 0% (refers to: total bile acids increased; human; 125 mg, powder in bottle).
`[O-][S+]1CCc2nc(N3CCC(c4ncc(Cl)cn4)CC3)nc(NC3(CO)CCC3)c21` (stereo not drawn): “adverse event incidence” 0% (refers to: Constipation; healthy male humans; 12 mg twice daily).

Repeated from above:
The mortality of `C=C(CN(C(=O)c1c(C(F)F)nn(C)c1F)C1CC1)c1ccc(Cl)cc1Cl` is reported as 0% (static acute toxicity test; zebrafish (Brachydanio rerio); 0.833 mg a.i./L, 6 h).
